Published values gathered from unrelated publications.
Every numbered part comes from another study and shows a few of its results, in no order.

Block 1
Target: RING finger protein unkempt homolog, zinc fingers 1-6, GST-SBP tag (UNK, Homo sapiens, UniProt Q9C0B0, residues 30-357)
Method: RNA Bind-n-Seq
Form: RNA
Medium: in vitro
Tested at: not given
Notes: RNA with constant flanks, human and mouse sites, ends assumed
Reference: input RNA pool
Direction: higher = stronger binding
Target sequence (chain): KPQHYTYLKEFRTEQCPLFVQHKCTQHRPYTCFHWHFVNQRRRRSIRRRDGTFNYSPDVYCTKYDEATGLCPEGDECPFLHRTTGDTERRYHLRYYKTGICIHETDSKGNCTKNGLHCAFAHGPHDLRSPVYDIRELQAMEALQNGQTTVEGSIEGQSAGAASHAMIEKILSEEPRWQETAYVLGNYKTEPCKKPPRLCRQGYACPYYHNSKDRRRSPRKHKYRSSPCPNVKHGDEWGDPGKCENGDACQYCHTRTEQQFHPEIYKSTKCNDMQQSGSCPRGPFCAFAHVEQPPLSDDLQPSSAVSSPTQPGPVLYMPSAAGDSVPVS
| Oligonucleotide | bound/input enrichment [ratio] |
| --- | --- |
| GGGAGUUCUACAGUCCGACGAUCAAACCAACCAAUCCAGCUGCUCAGAAAGCUCUUACAACACCUACUCAUUAUAAACUUACACCUCGCCCUGCUACCAGAGUCAGGCCAAAGGCUUUGCAAACAACAGGCACAGCCAAAUCACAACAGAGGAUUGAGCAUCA | 0.3 |
| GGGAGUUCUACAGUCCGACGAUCUGAGAAUAAUCCUUUUUUUUUCACUAAUGGCAUUGAUGACAUGUUUGAAUCCUGUGUGUUGCAUUUAGAAAAGUAUUCUGAUGACUGUUAUAAACAGUGUGGUGUGAGGCCAUGGACUUCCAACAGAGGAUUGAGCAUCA | 1.13 |
| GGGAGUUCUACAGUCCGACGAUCGUCACUGGGCUUCUCAAGGAGCUGCAUACCCGCCUAGACAGGAGAUCUCGGCUAGUGGUUCUCUCUGCCCUGGGGGUGCCUGGCACAGGGAAAUCUACACUCCUUAACACCAUGUUUGGCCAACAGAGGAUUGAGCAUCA | 0.193 |
| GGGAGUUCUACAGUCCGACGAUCCUGUCAUGACUGGGUAGUGUGGACUAUCCUGAGCCGUAACUGCUCUGAAUGUUCACUCGAUUAGCCAUGUAUAUUUUAAAUGCUAAUAUUUAAUGAAUGUAAGUUUCAACAUUGUUGCUACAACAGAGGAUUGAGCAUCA | 2.01 |
| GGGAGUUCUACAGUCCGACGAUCGCGAGCAAAGUGCUGCUGUGCCAUGGGGAGCUGAAGAAUAAAAGCGGCCAUAAACUGUACAUUUUCCUAUUUCAAGACAUCUUGGUUUUGACUCGGCCUGUCACCCGAAAUGAGCGCCACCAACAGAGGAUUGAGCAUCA | 0.251 |
| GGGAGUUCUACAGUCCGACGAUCGUUUUUGACAAAAACAGGCGUUUACAGCUUUUAGAUGGGGAAUAUGAAGUGGCCAUGCAGGAAAUGGAAGAAUGUCCAAUAAGUAAGAAAAGAGCAACAUGGGAGACAAUUCUUGAUGGGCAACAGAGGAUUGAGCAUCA | 0.721 |
| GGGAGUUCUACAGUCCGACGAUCAUCUCCUCCAUCCUGGGCACCUGGCUGGACCAGUACUCGGAGGAUUUCUGUCAACCUCCGGACUUUCCCUGCCUCAAGCAGCUGGUGGCCUACGUGCAGCUCAACAUGCCAGGCUCAGACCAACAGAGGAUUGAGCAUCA | 0.0615 |
| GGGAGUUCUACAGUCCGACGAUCUGGCGUCUGAUUUGUAUGUCACAUUUGUGUAAAAUGGUAUGUUCUUUAAAAUGGUGUUGAUAACUGGAAUAUUGUAUGUAUGCUUGAAGAUGCUUUGUGCGAACCUAAGACUCACUCAGCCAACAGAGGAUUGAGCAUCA | 0.367 |

Block 2
Target: Replicase polyprotein 1ab, nsp13 helicase (rep, Severe acute respiratory syndrome coronavirus 2, UniProt P0DTD1)
Action: inhibitor
Tested at: 20 µM
| Compound | inhibition |
| --- | --- |
| OC1(c2ccc(Cl)c(C(F)(F)F)c2)CCN(CCCC(c2ccc(F)cc2)c2ccc(F)cc2)CC1 | 1.91% |
| Cn1cc(C(=O)[C@@H]2CCc3[nH]cnc3C2)c2ccccc21 | 4.94% |
| COc1ccc(Cl)cc1[C@]1(F)C(=O)Nc2cc(C(F)(F)F)ccc21 | 4.15% |
| O=C(Oc1ccc([N+](=O)[O-])cc1)N1CCN(Cc2cccc(Oc3ccccc3)c2)CC1 | 7.49% |
| NCCCC[C@H](NC(=O)[C@@H]1CCCN1C(=O)[C@@H]1CSSC[C@H](N)C(=O)N[C@@H](Cc2ccc(O)cc2)C(=O)N[C@@H](Cc2ccccc2)C(=O)N[C@@H](CCC(N)=O)C(=O)N[C@@H](CC(N)=O)C(=O)N1)C(=O)NCC(N)=O | -2.71% |
| NC(=O)c1nnn(Cc2cc(Cl)c(C(=O)c3ccc(Cl)cc3)c(Cl)c2)c1N | 0.58% |
| Oc1cc(O)cc(O)c1 | 5.56% |
| c1ccc(CNc2ncnc3[nH]cnc23)cc1 | 1.75% |
| CCc1ccc(C(=O)C(C)CN2CCCCC2)cc1 (stereo not drawn) | -3.27% |
| NC(=O)c1cnccn1 | 1.42% |
| O=C(NO)c1cnc(N2CCN(S(=O)(=O)c3ccc4ccccc4c3)CC2)nc1 | 4.21% |
| CCNC1=Nc2ccc(Cl)cc2C(C)(c2ccccc2)O1 (stereo not drawn) | 0.97% |
| C=C1CCN([C@H](C)[C@](O)(Cn2cncn2)c2ccc(F)cc2F)CC1 | 3% |
| CC(C)[C@H](CO)Nc1nc(Nc2cc(N)cc(Cl)c2)c2ncn(C(C)C)c2n1 | 8.91% |
| CC(=O)[C@H]1CC[C@H]2[C@@H]3CC=C4C[C@@H](O)CC[C@]4(C)[C@H]3CC[C@]12C | -3.23% |
| C=C1/C(=C\C=C2/CCC[C@]3(C)[C@@H]([C@H](C)/C=C/[C@H](C)C(C)(C)O)CC[C@@H]23)C[C@@H](O)C[C@@H]1O | 9.28% |
| Fc1ccc2c(CCNCc3cccc(OCC(F)(F)C(F)F)c3)c[nH]c2c1 | 12.1% |
| O=C(/C=C/c1ccccc1)NC(NC(=S)Nc1ccc(Cl)cc1)C(Cl)(Cl)Cl (stereo not drawn) | 4.4% |

Block 3
Target: Replicase polyprotein 1ab, main protease (rep, Severe acute respiratory syndrome coronavirus 2, UniProt P0DTD1)
Observed: enzyme activity
Action: inhibitor
Tested at: 20 µM
| SMILES | inhibition |
| --- | --- |
| COc1ccc(OC)c2c(=S)c3ccccc3[nH]c12 | -11.4% |
| CN1CCN(C(=O)c2ccc(-c3ccc4c(C=O)c(O)ccc4c3)s2)CC1 | 66.5% |
| c1cc[n+]2c(c1)[S][Zn]1([O]2)[O][n+]2ccccc2[S]1 | 99.3% |

Block 4
Target: Fragile X messenger ribonucleoprotein 1, C-terminal low-complexity region (Fmr1, Mus musculus, UniProt P35922)
Method: RNA Bind-n-Seq
Form: RNA
Medium: in vitro
Tested at: 200 nM
Notes: whole 134-nt RNA, ends assumed
With: 150 mM LiCl
Reference: input library
Direction: higher = stronger binding
Each molecule: 7-deaza-guanosine replaces G
| Oligonucleotide | log2 enrichment |
| --- | --- |
| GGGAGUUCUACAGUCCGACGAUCCUGUGCUACACAUCGUAUGUACCGAAUCAAAUUUUUUUAAAUUUUUUUAAAUUUUUUUAAAAAAGUAUUAUGUUACGCCGUUCGGAUCUGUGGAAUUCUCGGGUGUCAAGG | -2.68 |
| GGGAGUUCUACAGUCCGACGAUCUGGGAGGUGGAUUUUGUUUAUUUUUUUAGCUCAUUUCCAGGGGUGGGAAUUUUUUUUUAAUAUGUGUCAUGAAUAUAGUUGUUUUUGAAAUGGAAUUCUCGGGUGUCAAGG | 0.0943 |
| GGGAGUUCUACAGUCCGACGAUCUGGCCAUGGUGGCAUGCGGGGAGGAAGAGGUGGCCUCAUGGAUCGUGGUGGUCCCGGUGGAAUGUUCAGAGGUGGCCGUGGUGGAGACAGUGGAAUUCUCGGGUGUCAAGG | -0.509 |
| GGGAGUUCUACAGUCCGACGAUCUCAAGUCCUGUGCUACACAUCGUAUGUACCGAAUCGGGAAAGGAAAGGGGAAAGGAAAGUAUUAUGUUACGCCGUUCGGAUCUGCACUUCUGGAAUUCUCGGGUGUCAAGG | -1.32 |
| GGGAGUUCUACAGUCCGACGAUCAGUCCUGUGCUACACAUCGUAUGUACCGAAUCGGAAAGGAAAAAAAGGAAAAAAAGGAAAGUAUUAUGUUACGCCGUUCGGAUCUGCACUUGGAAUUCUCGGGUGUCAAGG | -1.39 |
| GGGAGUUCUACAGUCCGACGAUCAGUCCUGUGCUACACAUCGUAUGUACCGAAUCGGGUUUUUGGGUUUUUGGGUUUGGGAAAGUAUUAUGUUACGCCGUUCGGAUCUGCACUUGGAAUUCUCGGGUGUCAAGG | -1.8 |
| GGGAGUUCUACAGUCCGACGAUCACCAUGCAGGUGGGCAUCUUUGGGAAGUGGGGCAAGGGGGGGAUAGGGAGGGGGCUAACACUUUGGGAACAGGUGGUCCCAGGUCGUUUCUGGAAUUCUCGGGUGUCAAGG | 1.27 |
| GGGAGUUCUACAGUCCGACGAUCUGGGAGGUGGAUUUUGUUUAUUUUUUUAGCUCAUUUCCAGGGGUGGGAAUUUUUUUUUAAUAUGUGUCAUGAAUAAAGUUGUUUUUGUAAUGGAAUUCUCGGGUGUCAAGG | 0.332 |

Block 5
Target: RNA binding protein fox-1 homolog 2, RRM domain, GST-SBP tag (RBFOX2, Homo sapiens, UniProt O43251-10, residues 100-194)
Method: RNA Bind-n-Seq
Form: RNA
Medium: in vitro
Tested at: 365 nM
Notes: natural RNA segment, single round, ends assumed
Reference: no-protein control
Direction: higher = stronger binding
Target sequence (chain): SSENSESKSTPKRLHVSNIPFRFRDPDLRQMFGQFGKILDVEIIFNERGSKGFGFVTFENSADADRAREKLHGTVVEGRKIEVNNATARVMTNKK
| Oligonucleotide | RBNS enrichment (R) |
| --- | --- |
| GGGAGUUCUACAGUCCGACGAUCGCUGCUAAAUCUCCUAUUUUUUUAAAAUCACUAACAUUAUAUUGCAAUGAAGGAAAUAAAAAAGUCUCUAUUUAAAUUCUUUUUUAAAUUUUCUUCAGUUGGUGUGUUUUUGGAAUUCUCGGGUGCCAA | 1.51 |
| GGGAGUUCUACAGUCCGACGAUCAGGUCCAGAGGAGGUGGGCAGGGUCUGUGGUCCUCGUUCUCCAUGCCAUCUCCCUGCCAGCACCCCUUGAGUGUCCACAUCCAGGGACCGAGCCUGGCACAGCUCCCCUAUGGAAUUCUCGGGUGCCAA | 0.42 |
| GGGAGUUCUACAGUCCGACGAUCAUAUUUCAAUUGACAAACCAGCAGGACAUAUGAAAAAUGCUUCAGUGAUGUGGUCCAUUAUAAGAUAAGUACACAAAAAUUUUCUUGAAAAAUAUUGUAUGAUUGCAUAGUGGAAUUCUCGGGUGCCAA | 0.544 |
| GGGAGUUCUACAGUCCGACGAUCGUGGAGGAUUCGGAACAAGUCAUGGAGAGACUGUCCGGGUCCGCUCCUUGUGAACUGUGCAGAAGGAGUGAUCCCAGCAUCGGCAAGCGAGGGAGAAGACUGCACGAGAGUGGAAUUCUCGGGUGCCAA | 1.75 |
| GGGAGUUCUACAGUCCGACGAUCAAUUAUUCUGUCACCCAGCCUGGCGUAGGACUCUUUUGGUCCUGCCUGCUUCCUAUCUCUGGAGGAGCUUCCCCACGCGGGAGAGCAAUGGCAGAGGAUCCACACAUCCUUGGAAUUCUCGGGUGCCAA | 0.205 |
| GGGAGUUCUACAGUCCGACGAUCUUCCCGGCCGUGGACCAUAGUCGGGAUGUCAGCAGACACACAUGGGCAGCCCAAAGCUGCAGGUGCCAGGGCCCACCCCAGCCUCGCCUGUCACCCCCACUCCCGCCUCAUGGAAUUCUCGGGUGCCAA | 0.245 |
| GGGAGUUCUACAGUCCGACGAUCGCAUUCAUUUUAUUUCCCUUAAGGUCUGGAUGAGACUUCUUUGGGGAGCCUCUAAAAAAAUUUUUCACUGGGGGCCACGUGGGUCAUUAGAAGCCAGAGCUCUCCUCCAGUGGAAUUCUCGGGUGCCAA | 0.531 |
| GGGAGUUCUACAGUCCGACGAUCUGUAACCACUGCUUCAGUCACCUCCCACCUCUUGCCACCUGCUGCUGCUAUCUGUCCUUACUUGUGGGCUUCUCCAUGCUGUGCCAAUGGCUGGCUUUUUCUACACCCUCUGGAAUUCUCGGGUGCCAA | 0.451 |

Block 6
Cell line: HEK-293T/ACE2
Tested at: concentration not given
Time: 16 (unit not given)
Reference: vehicle
| SMILES | viability [%] |
| --- | --- |
| Nc1nc(F)nc2c1ncn2[C@@H]1O[C@H](COP(=O)(O)O)[C@@H](O)[C@@H]1O | 100 |
| CN(CCOc1ccc(CC2SC(=O)NC2=O)cc1)c1ccccn1 (stereo not drawn) | 102 |
| COc1ccc(-n2nc(C(N)=O)c3c2C(=O)N(c2ccc(N4CCCCC4=O)cc2)CC3)cc1 | 98.6 |
